Values quoted from earlier work that unrelated publications cite.
Protocols differ between the studies behind these lines. Values joined by “and” are separate records of one study, mostly repeats; a detail may differ. ± gives the spread as reported.
CA12: Carbonic anhydrase 12 (CA12, Homo sapiens, UniProt O43570)
UniProt O43570, sequence (whole entry, looked up): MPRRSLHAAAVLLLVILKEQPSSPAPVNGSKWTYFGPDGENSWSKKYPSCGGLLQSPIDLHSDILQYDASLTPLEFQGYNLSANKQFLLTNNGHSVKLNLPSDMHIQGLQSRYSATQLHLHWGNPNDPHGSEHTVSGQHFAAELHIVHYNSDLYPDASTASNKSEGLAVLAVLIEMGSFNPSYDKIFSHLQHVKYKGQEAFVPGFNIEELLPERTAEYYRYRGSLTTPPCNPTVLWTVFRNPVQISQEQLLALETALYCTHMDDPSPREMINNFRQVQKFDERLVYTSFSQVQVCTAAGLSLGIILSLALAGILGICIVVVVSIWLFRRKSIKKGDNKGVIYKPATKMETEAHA
CA2: Carbonic anhydrase 2 (CA2, Homo sapiens, UniProt P00918)
UniProt P21796, sequence (whole entry, looked up): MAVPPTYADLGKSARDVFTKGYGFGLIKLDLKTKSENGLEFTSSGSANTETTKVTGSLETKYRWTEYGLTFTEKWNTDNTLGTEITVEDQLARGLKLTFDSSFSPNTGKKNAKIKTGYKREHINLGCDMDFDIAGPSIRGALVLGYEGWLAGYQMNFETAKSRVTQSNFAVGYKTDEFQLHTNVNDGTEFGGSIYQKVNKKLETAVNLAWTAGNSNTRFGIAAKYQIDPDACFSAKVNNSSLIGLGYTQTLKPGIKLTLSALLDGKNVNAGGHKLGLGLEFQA
UniProt P98170, sequence (whole entry, looked up): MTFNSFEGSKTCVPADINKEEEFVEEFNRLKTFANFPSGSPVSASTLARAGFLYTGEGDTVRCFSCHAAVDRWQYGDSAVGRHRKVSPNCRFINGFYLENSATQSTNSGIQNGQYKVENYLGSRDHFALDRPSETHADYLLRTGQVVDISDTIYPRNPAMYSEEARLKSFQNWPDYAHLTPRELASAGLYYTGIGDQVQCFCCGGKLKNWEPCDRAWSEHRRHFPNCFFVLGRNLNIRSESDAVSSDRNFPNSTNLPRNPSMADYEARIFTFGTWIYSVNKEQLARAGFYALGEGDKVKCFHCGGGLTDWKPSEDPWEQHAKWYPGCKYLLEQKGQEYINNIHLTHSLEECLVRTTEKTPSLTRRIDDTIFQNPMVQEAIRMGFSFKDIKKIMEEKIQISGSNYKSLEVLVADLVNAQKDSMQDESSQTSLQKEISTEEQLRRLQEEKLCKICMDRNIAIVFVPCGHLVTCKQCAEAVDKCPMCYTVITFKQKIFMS
UniProt P51449, sequence (whole entry, looked up): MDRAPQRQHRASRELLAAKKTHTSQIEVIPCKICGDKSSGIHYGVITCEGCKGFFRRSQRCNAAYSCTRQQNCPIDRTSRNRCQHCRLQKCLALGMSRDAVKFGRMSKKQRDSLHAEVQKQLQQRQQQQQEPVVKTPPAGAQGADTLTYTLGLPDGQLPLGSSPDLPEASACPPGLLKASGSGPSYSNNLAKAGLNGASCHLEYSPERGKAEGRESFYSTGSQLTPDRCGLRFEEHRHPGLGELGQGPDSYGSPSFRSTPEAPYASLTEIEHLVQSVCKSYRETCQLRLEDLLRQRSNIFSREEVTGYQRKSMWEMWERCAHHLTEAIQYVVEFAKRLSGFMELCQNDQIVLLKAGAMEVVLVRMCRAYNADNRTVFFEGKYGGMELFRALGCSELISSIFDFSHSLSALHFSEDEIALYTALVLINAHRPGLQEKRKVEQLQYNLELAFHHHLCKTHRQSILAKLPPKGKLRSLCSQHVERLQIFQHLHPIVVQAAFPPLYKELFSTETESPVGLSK
UniProt P16442, sequence (whole entry, unmodified, looked up): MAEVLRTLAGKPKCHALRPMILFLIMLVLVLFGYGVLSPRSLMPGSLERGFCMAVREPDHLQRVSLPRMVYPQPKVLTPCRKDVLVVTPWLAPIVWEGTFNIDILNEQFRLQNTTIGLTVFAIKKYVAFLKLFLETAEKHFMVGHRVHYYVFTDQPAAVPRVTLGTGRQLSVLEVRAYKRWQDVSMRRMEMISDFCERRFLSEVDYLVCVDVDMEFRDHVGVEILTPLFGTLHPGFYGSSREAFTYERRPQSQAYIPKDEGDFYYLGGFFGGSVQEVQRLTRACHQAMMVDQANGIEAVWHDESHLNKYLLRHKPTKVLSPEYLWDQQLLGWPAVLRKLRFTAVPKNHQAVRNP
UniProt P13569, sequence (whole entry, unmodified, looked up): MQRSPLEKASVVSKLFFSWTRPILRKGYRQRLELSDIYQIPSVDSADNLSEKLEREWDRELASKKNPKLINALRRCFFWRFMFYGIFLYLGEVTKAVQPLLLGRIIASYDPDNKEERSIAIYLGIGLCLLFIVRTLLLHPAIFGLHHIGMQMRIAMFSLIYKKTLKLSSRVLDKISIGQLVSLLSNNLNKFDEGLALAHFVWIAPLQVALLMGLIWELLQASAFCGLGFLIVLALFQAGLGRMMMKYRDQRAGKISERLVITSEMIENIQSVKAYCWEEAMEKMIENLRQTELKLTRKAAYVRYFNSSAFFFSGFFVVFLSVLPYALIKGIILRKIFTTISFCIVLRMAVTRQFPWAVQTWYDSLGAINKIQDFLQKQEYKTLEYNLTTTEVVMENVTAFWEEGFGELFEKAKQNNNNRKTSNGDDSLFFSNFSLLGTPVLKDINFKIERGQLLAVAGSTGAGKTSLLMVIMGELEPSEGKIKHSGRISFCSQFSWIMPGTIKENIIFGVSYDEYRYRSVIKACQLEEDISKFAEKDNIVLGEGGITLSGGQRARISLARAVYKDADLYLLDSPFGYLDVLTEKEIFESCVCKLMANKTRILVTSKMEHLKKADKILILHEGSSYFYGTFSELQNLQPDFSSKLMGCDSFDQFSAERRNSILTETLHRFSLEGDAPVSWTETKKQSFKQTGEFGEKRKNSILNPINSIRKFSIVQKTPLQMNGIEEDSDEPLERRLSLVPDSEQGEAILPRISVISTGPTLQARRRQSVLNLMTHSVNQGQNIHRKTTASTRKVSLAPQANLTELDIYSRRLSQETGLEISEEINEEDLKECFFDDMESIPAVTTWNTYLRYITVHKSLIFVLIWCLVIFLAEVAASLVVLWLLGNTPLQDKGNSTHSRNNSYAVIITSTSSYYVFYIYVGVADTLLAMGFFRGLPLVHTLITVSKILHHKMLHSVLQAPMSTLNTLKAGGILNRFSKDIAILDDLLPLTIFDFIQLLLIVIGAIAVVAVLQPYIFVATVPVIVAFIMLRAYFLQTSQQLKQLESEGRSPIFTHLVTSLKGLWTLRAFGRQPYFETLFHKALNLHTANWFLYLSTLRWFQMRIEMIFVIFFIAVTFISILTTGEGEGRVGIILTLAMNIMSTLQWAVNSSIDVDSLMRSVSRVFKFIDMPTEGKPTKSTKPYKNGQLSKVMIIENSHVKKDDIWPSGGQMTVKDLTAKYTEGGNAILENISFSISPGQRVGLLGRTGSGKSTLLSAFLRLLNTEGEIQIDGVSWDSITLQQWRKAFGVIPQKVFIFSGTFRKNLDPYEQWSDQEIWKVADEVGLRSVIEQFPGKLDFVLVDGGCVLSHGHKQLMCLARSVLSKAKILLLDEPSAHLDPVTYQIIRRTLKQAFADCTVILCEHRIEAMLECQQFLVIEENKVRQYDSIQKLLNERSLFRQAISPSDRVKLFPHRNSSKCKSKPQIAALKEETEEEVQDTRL
UniProt Q9Y572, sequence (whole entry, looked up): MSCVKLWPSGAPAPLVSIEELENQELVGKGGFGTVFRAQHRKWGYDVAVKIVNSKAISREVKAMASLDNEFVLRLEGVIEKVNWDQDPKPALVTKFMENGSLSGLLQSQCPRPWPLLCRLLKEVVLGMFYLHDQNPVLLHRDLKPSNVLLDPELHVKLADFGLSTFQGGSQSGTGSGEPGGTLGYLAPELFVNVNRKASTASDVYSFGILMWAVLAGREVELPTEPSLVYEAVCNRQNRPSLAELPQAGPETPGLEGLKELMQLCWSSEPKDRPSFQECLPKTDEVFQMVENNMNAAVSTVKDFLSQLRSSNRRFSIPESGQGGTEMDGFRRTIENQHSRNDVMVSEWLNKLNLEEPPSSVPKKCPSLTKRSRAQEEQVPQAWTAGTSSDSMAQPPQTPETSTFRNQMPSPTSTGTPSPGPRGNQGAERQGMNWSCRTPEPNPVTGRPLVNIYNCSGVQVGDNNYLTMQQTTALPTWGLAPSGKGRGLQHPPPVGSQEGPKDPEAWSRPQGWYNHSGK

O=C(O)c1cc([N+](=O)[O-])ccc1NCCCc1ccccc1 has a Kd of 150 µM (Cystic fibrosis transmembrane conductance regulator, pore-binding site (CFTR, Homo sapiens, UniProt P13569, K1250A); pore binding; 0 mV).
With CCCCCCCCO[C@@H]1O[C@H](CO)[C@H](O)[C@H](O)[C@H]1O[C@@H]1O[C@@H](C)[C@@H](O)[C@@H](O)[C@@H]1O the Kd was 7 µM (ABO (Homo sapiens, UniProt P16442, G235S/G268A/L266M/R176G); binding, isothermal titration calorimetry; with: UDP).
For NS(=O)(=O)c1c(F)c(F)c(S(=O)(=O)CCc2ccccc2)c(NC2CCCCCCCCCCC2)c1F, the Kd was 0.065 µM (CA12; fluorescent thermal shift; pH 7.0, 37 °C, observed).
With O=C(Nc1cccc(Br)c1)Nc1cc(Oc2ccc3nc(NC(=O)C4CC4)sc3c2)ccc1F the Kd was 0.08 µM (RIPK3 (Homo sapiens, UniProt Q9Y572)).
The Kd of NS(=O)(=O)c1c(F)c(F)c(NCCc2ccc(O)cc2)c(F)c1NC1CCCCCCC1 is reported as 10 µM (CA2; thermal shift; pH 7.0, 37 °C).
The Kd of O=C(CC(CO)N1CCN(c2ccc(OC(F)(F)F)cc2)CC1)Nc1ccc(Cl)cc1 (stereo not drawn) is reported as 53 µM (VDAC1 (Homo sapiens, UniProt P21796); binding).
CC(C)C1=CC23CCC4C(C)(C(=O)O)CCCC4(C)C2CC1C(C(=O)O)C3C(=O)O (stereo not drawn) has a Kd of 18 µM and 18.3 µM (DBD-F; fluorescence anisotropy).
O=C(C=CN1C2CCC1c1ncnc(NC3CC3)c1C2)c1ccccc1O (stereo not drawn) gave a Kd of 0.053 µM (SMARCA4; binding).
NS(=O)(=O)c1c(F)c(F)c(S(=O)(=O)CCO)c(N[C@H]2CCc3ccccc32)c1F gave a Kd of 0.0083 µM (CA12; fluorescent thermal shift; pH 7.0, 37 °C, observed).
For CCc1nc2ccccc2cc1C(=O)N1CCC[C@H]1C(=O)N[C@H](CSSC[C@@H](NC(=O)[C@@H]1CCCN1C(=O)c1cc2ccccc2nc1CC)C(=O)N[C@@H](CCCCN)C(=O)NCCCN)C(=O)N[C@@H](CCCCN)C(=O)NCCCN, the Kd was 6.7 µM (CUG repeat RNA; filter binding).
With COc1ccc2nc3cc(Cl)ccc3c(NCCCCNc3nc(N)nc(N)n3)c2c1 the Kd was greater than 300 µM (RNA repeat r(CGG)2; binding).
For CC[C@H](C)[C@H](NC(=O)[C@H](N)Cc1ccc(O)cc1)C(=O)N[C@H]1CSSC[C@@H](C(=O)N(C)[C@H](C(N)=O)[C@@H](C)CC)NC(=O)[C@H](CCCNC(=N)N)NC(=O)[C@H](Cc2c[nH]cn2)NC(=O)[C@H](C)NC(=O)CN(C)C(=O)[C@H](Cc2c[nH]c3ccccc23)NC(=O)[C@H](CC(=O)O)NC(=O)[C@H](CCC(N)=O)NC(=O)[C@H](Cc2cn(C)c3ccccc23)NC(=O)[C@H](C(C)C)NC1=O, the Kd was 0.0005 µM (complement C3 and C3b (human, non-human primate); binding).
With O=C(Nc1cccc(C(=O)Nc2ccc(S(=O)(=O)O)c3cc(S(=O)(=O)O)cc(S(=O)(=O)O)c23)c1)Nc1cccc(C(=O)Nc2ccc(S(=O)(=O)O)c3cc(S(=O)(=O)O)cc(S(=O)(=O)O)c23)c1 the Kd was 24 ± 4 µM (E3 ubiquitin-protein ligase XIAP, BIR1 domain (XIAP, Homo sapiens, UniProt P98170); binding, tryptophan fluorescence).
O=C(O)CCC(=O)C(=O)O gave a Kd of 2200 ± 200 µM (EIC domain; binding).
With NS(=O)(=O)c1c(F)c(F)c(S(=O)(=O)CCc2ccccc2)c(N[C@H]2CCc3ccccc32)c1F the Kd was 0.041 µM (CA12; fluorescent thermal shift; pH 7.0, 37 °C, observed).
For O=C(O)CCC(NC(=O)NC(CCCCNC(=O)C(Cc1ccc2ccccc2c1)NC(=O)C1CCC(CNC(=O)CCCCCNC(=S)Nc2ccc3c(c2)C(=O)OC32c3ccc(O)cc3Oc3cc(O)ccc32)CC1)C(=O)O)C(=O)O (stereo not drawn), the Kd was roughly 0.001 µM (glutamate carboxypeptidase III; binding).
OC[C@H]1O[C@@H](OCc2cn([C@@H]3O[C@H](CO)[C@@H](n4cc(-c5ccc(-c6cn([C@H]7[C@H](O)[C@@H](O)[C@H](n8cc(CO[C@@H]9O[C@H](CO)[C@H](O)[C@H](O)[C@H]9O)nn8)O[C@@H]7CO)nn6)cc5)nn4)[C@H](O)[C@H]3O)nn2)[C@H](O)[C@@H](O)[C@H]1O has a Kd of 0.016 µM (LecA lectin, Pseudomonas aeruginosa).
With C[C@H](CCC(=O)O)[C@H]1CC[C@H]2[C@@H]3CC[C@@H]4CC(=O)CC[C@]4(C)[C@H]3CC[C@]12C the Kd was roughly 1.1 µM (RORC (Homo sapiens, UniProt P51449); binding).
CN(C)c1ccc(/N=N/c2ccc(S(=O)(=O)O)cc2)cc1 gave a Kd of 280 µM (bovine serum albumin; binding, equilibrium dialysis).
NS(=O)(=O)c1c(F)c(F)c(S(=O)(=O)CCc2ccccc2)c(N2CCOCC2)c1F gave a Kd of 0.0012 µM (CA2; thermal shift; pH 7.0, 37 °C).
Cc1ccc2oc(=O)c(-c3nc4cnccc4[nH]3)cc2c1 has a Kd of 3.31 µM (Bifunctional arginine demethylase and lysyl-hydroxylase JMJD6 (Homo sapiens, UniProt Q6NYC1); binding, surface plasmon resonance).
For NS(=O)(=O)c1cc(C(=O)NCCCC(=O)O)c(S(=O)(=O)c2ccccc2)cc1Cl, the Kd was 0.0064 µM (CA12; fluorescent thermal shift; pH 7.0, 37 °C, observed).
O=C1Nc2ccc(I)cc2C1=Cc1cc(Br)c(O)c(Br)c1 gave a Kd of 0.468 µM (LC3B (recombinant); small molecule microarray).
CC(C)(C)Nc1c(F)c(S(N)(=O)=O)c(F)c(F)c1S(=O)(=O)CCc1ccccc1 gave a Kd of 0.067 µM (CA12; fluorescent thermal shift; pH 7.0, 37 °C, observed).
C[C@H](NC(=O)[C@@H]1CCCN1C(=O)[C@@H]1CCCN1C(=O)[C@H](C)NC(=O)[C@@H](NC(=O)[C@H](CO)NC(=O)CNC(=O)[C@@H]1CCCN1C(=O)[C@H](C)NC(=O)[C@@H]1CCCN1C(=O)[C@@H](N)CCCNC(=N)N)[C@@H](C)O)C(=O)N[C@@H](Cc1c[nH]cn1)C(=O)NCC(=O)O has a Kd of 0.541 µM (16 A monoclonal antibody; SPR).
For NS(=O)(=O)c1c(F)c(F)c(S(=O)(=O)CCO)c(NC2CCCCCCCCCCC2)c1F, the Kd was 0.042 µM (CA2; thermal shift; pH 7.0, 37 °C).
Cc1ncsc1-c1ccc(CNC(=O)[C@@H]2C[C@@H](O)CN2C(=O)[C@@H](NC(=O)OC(C)(C)C)C(C)(C)C)cc1 has a Kd of 6.5 µM (VHL-elongin B-elongin C complex; binding, fluorescence polarization; with: 10 nM FAM-HIF-1α peptide with 15 nM VCB).

For quick reference, copied from above:
The Kd of NS(=O)(=O)c1c(F)c(F)c(NCCc2ccc(O)cc2)c(F)c1NC1CCCCCCC1 is reported as 10 µM (CA2; thermal shift; pH 7.0, 37 °C).
For NS(=O)(=O)c1c(F)c(F)c(S(=O)(=O)CCc2ccccc2)c(NC2CCCCCCCCCCC2)c1F, the Kd was 0.065 µM (CA12; fluorescent thermal shift; pH 7.0, 37 °C, observed).
For NS(=O)(=O)c1cc(C(=O)NCCCC(=O)O)c(S(=O)(=O)c2ccccc2)cc1Cl, the Kd was 0.0064 µM (CA12; fluorescent thermal shift; pH 7.0, 37 °C, observed).
